Published values of several laboratories.
Parts stem from different laboratories: compare values within a part only.

Series 1
Target: Prothrombin, mature alpha-thrombin (F2, Homo sapiens, UniProt P00734)
Method: aptamer microarray, sandwich
Molecule type: DNA with 2'F-ANA
Sample: in vitro
Concentration: 200 nM
Setting: whole 15-mer aptamer, many near background
Added: Cy3 exosite-II aptamer, 400 nM
Direction: higher = stronger binding
Strand: GGTTGGTGTGGTTGG
Modification | mean fluorescence intensity [a.u.]
2'F-ANA at 1 3 5 12 14 15 | 50
2'F-ANA at 2 3 4 6 7 9 10 11 14 15 | 149
2'F-ANA at 5 6 7 8 9 14 | 47.6
2'F-ANA at 2 3 6 7 8 10 11 | 335
2'F-ANA at 2 6 7 8 9 15 | 403
2'F-ANA at 1 2 5 6 7 9 | 63.6
2'F-ANA at 1 6 7 9 12 13 | 229

Series 2
Target: Histone acetyltransferase KAT6A, both winged helices, GST fusion (KAT6A, Homo sapiens, UniProt Q92794, residues 1-181)
Method: protein binding microarray
Molecule type: double-stranded DNA, one strand shown
Sample: in vitro
Concentration: not given
Setting: 8-mer, flanks averaged, mean of 2 arrays, mostly near background
Baseline: not given
Direction: higher = stronger binding
Residues (chain): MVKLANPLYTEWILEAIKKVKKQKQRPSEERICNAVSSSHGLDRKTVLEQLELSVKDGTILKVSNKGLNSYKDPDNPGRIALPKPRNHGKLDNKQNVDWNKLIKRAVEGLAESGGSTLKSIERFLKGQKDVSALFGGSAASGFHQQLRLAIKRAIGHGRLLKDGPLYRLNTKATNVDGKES
Strand | E-score
CCTCGGAG | 0.0112
CTACGCGC | 0.344
CGAGTACG | 0.158
GATTTCAC | -0.0245
ACGGCATG | 0.274
ACAAGCAG | -0.232
CGAAGGGA | -0.171
ATTTCCGG | 0.165
CGTACCCA | -0.0467

Series 3
Target: human cyclin A2
Effect on: peptide binding
Method: competitive growth sequencing
Molecule type: peptide
Organism: Saccharomyces cerevisiae
Strain: cyclin A2-Cln2 fusion strain
Concentration: concentration not given
Setting: peptide tiling library
Baseline: unfused Cln2 strain
Direction: direction not given
Sequence | binding score
NSMKELNFSHLPSNSV | -0.13
RPPVKARADLETDHQY | -0.322
KDDDKAWEYEERDRRS | 0.682
SDSTVTKLDFDLEP | -0.144
KSKHEEEEWTDDDLVE | 0.115
PYSPLLPPFGLSYTPV | 2.61

Further values, each from its own experiment
Molecule | target | assay | system | conditions | how to read | endpoint | value
PhoQ, residues 284 288 289 292 302 303 SLKLQV | PhoP, residues 12 14 15 18 19 AGCRL (Escherichia coli, UniProt P23836) | Sort-seq, measured: YFP reporter | E. coli | PhoQ-PhoP variant library, added: 10 µM Mg2+ | baseline: high Mg2+ state, higher = stronger signaling | fold induction | 8.31

For quick reference, copied from above (series 1):
Modification | mean fluorescence intensity [a.u.]
2'F-ANA at 1 2 5 6 7 9 | 63.6
2'F-ANA at 2 3 6 7 8 10 11 | 335
